Measurements of several laboratories.
Lines come from different studies, so protocols differ.
RPS6KA3 C-terminal kinase domain: Ribosomal protein S6 kinase alpha-3, C-terminal kinase domain (RPS6KA3, Homo sapiens, UniProt P51812)
RPS6KA3 N-terminal kinase domain: Ribosomal protein S6 kinase alpha-3, N-terminal kinase domain (RPS6KA3, Homo sapiens, UniProt P51812)

The remaining binding of `C=CC(=O)N1CCCC(n2c(=O)c3ncccc3n(Cc3ccc(Oc4ccccc4)cc3)c2=O)C1` (stereo not drawn) is reported as 98% (RPS6KA3 C-terminal kinase domain; binding, competition with immobilised ligand; 1 µM).
The remaining binding of `C=CC(=O)N1CCc2ccc(-n3c(=O)ccc4cnc5ccc(-c6cnn(C)c6)cc5c43)cc21` is reported as 100% (RPS6KA3 N-terminal kinase domain; KINOMEscan; 1 µM; baseline: DMSO control).
The remaining binding of `CNC1C[S+]2CC[S+]3CC[S+](C1)[Ru-4]321([N]=C=S)[n]2c3ccc(OC)cc3c3c4c(c5cc(F)c[n+]1c5c32)C(=O)NC4=O` (stereo not drawn) is reported as 100% (RPS6KA3 C-terminal kinase domain; KinomeScan; 0.1 µM; baseline: untreated).
`CCN1CCN(Cc2ccc(C(=O)Nc3ccc(C)c(NCc4cnc5[nH]ccc5c4OC)c3)cc2C(F)(F)F)CC1` has a remaining binding of 68% (RPS6KA3 N-terminal kinase domain; binding, competition with immobilised ligand; 1 µM).
`CNC(=O)C1CCN(c2cc(C)c(F)cc2NC(=O)c2ccc(-c3cc(O)ccc3C)c(C)c2)CC1` has a remaining binding of 95% (RPS6KA3 C-terminal kinase domain; binding, competition with immobilised ligand; 1 µM).
With `COc1ccc(NC(=O)Nc2ccc3c(c2)C(=O)N(C(C)CO)CC(C)C(CN(C)Cc2ccc4c(c2)OCO4)O3)cc1` (stereo not drawn) the remaining binding was 80% (RPS6KA3 N-terminal kinase domain; binding, competition with immobilised ligand; 10 µM).
`Nc1ncc2c(n1)-c1c([nH]c3ccc(C4=CCOCC4)cc13)CCC2` has a remaining binding of 100% (RPS6KA3 C-terminal kinase domain; binding, competition with immobilised ligand; 1 µM).
`Cc1ccc(-c2c(/C=C(\C#N)C(=O)NC(C)C)n(CCCO)c3ncnc(N)c23)cc1` gave a remaining binding of 79% (RPS6KA3 N-terminal kinase domain; binding, competition with immobilised ligand; 1 µM).
`COc1cc(Nc2nc(C)cc(-c3cnn4nc(OC)ccc34)n2)cc(C(F)(F)F)c1` gave a remaining binding of 98% (RPS6KA3 C-terminal kinase domain; binding, competition with immobilised ligand; 1 µM).
The remaining binding of `COc1c(Cl)cccc1Nc1c(-c2ccncc2C#C[C@@]2(C)CCCN2C(=O)/C=C/CN(C)C)[nH]c2c1C(=O)NCC2` is reported as 47% (RPS6KA3 N-terminal kinase domain; binding, competition with immobilised ligand; 3 µM).
The remaining binding of `CNS(=O)(=O)Nc1nccc(Cc2c(C)c3ccc(Oc4ncccc4F)cc3oc2=O)c1F` is reported as 51% (RPS6KA3 N-terminal kinase domain; binding, competition with immobilised ligand; 10 µM).
With `COc1cc(Nc2nccc(-c3cnn4nc(OC)ccc34)n2)cc(C(F)(F)F)c1` the remaining binding was 86% (RPS6KA3 N-terminal kinase domain; binding, competition with immobilised ligand; 1 µM).
The remaining binding of `Cc1cnc2nc1Nc1cccc(c1)COC/C=C/COCc1cc(ccc1OCCN1CCOCC1)N2` is reported as 65% (RPS6KA3 N-terminal kinase domain; binding, competition with immobilised ligand; 0.1 µM).
For `CN1CCN(Cc2ccc(NC(=O)c3cccc(C#Cc4cnc(N)c5ncccc45)c3)cc2C(F)(F)F)CC1`, the remaining binding was 77% (RPS6KA3 N-terminal kinase domain; cell-free assay, competition with immobilised ligand; 50 nM).
The remaining binding of `CC(C)=CC1OC(C)(C)C2C=C3C(=O)C(Cl)=CC(O)C3C3C(O)C4OC4C(=O)C132` (stereo not drawn) is reported as 88% (RPS6KA3 C-terminal kinase domain; cell-free assay, competition with immobilised ligand; 10 µM).

Some of these lines once more:
`CNC(=O)C1CCN(c2cc(C)c(F)cc2NC(=O)c2ccc(-c3cc(O)ccc3C)c(C)c2)CC1` has a remaining binding of 95% (RPS6KA3 C-terminal kinase domain; binding, competition with immobilised ligand; 1 µM).
The remaining binding of `CC(C)=CC1OC(C)(C)C2C=C3C(=O)C(Cl)=CC(O)C3C3C(O)C4OC4C(=O)C132` (stereo not drawn) is reported as 88% (RPS6KA3 C-terminal kinase domain; cell-free assay, competition with immobilised ligand; 10 µM).
